Experimental data pooled from the literature.
“And” joins repeats or separate records; there may be more than shown.

`COCC1CN(C2CCN(c3cc(OC)c(Nc4ncc(Br)c(Nc5ccc6c(c5P(C)(C)=O)OCCO6)n4)cc3C)CC2)C1` gave an AUC(0-inf) of 53600 ng·h/mL (EGFR-mutant NSCLC patients, plasma; oral, 240 mg single dose, geometric mean).
`Cc1cc(C)nc(NC(=S)N2CCN(Cc3ccc(C(F)(F)F)cc3)CC2)c1` gave an AUC(0-inf) of 14700 ng·h/mL (plasma; intraperitoneal, 30 mg/kg).
`O=C(NN(c1ccccc1)c1ccccc1)c1ccc([N+](=O)[O-])o1` has a translation activity of 104% (Trypanosoma cruzi; reporter mRNA translation, inhibitor, item: Renilla luciferase mRNA; cell-free extract; concentration not given, test 2; relative to: positive over negative control).
For `CC[C@H](C)[C@@H]1NC(=O)[C@H](Cc2ccc(O)cc2)NC(=O)CCCSC[C@@H](C(=O)N(CC(=O)N[C@@H](CC(C)C)C(=O)NCC(N)=O)Cc2ccc(F)cc2)NC(=O)[C@H](CC(N)=O)NC(=O)[C@H](CCC(N)=O)NC1=O`, the AUC(0-inf) was 0.086 ng·h/mL (healthy women, plasma; intranasal, 200 µg single dose).
`COc1cnc2cccc(N3CCc4c(cc(Cn5ccnc5)cc4-c4cn(C)nc4C(F)(F)F)C3=O)c2c1` has an AUC(0-inf) of 2020 ng·h/mL (male CD-1 mouse, plasma; intravenous, 3 mg/kg).
The AUC(0-inf) of `Cc1cc(NC(=O)[C@H](O)c2cc(F)cc(F)c2)ccc1-c1cnc(N)c(C(=O)NC(C)C)c1` is reported as 5260 ng·h/mL (female nude mouse, plasma; oral, 10 mg/kg, single dose).
For `CC(C)Oc1ccc(CNCCC2(C(C)C)CCOC(C)(C)C2)cc1` (stereo not shown), the translation activity was 67.8% and 77.3% (Trypanosoma cruzi; reporter mRNA translation, inhibitor, item: Renilla luciferase mRNA; cell-free extract; concentration not given, test 2; relative to: positive over negative control).
`C=C(NC(=O)c1csc(-c2nc3c(cc2O)-c2nc(cs2)C(=O)NC(C(C)O)C(=O)NC(=C(C)OC)c2nc(cs2)C(=O)NC2c4nc(cs4)C(=O)NC(COC(=O)c4c5c6c(cccc6n4O)COC(=O)C(OC4CC(C)(O)C(N(C)C)C(C)O4)C2OC5)c2nc-3cs2)n1)C(N)=O` (stereo not shown) has an AUC(0-inf) of 769 ng·h/mL (ICR mice, Streptococcus pneumoniae ATCC 49169 infected, immunocompromised, blood; intravenous, 8 mg/kg/day once daily).
`C/C(N)=N/C(=N\S(=O)(=O)c1ccc(C(F)(F)F)cc1)N1C[C@H](c2ccccc2)C(c2ccc(Cl)cc2)=N1` has an AUC(0-inf) of 23100 ng·h/mL (male C57BL/6 mouse, lung; intravenous, 5 mg/kg).
`N=C(N)NCCC[C@@H]1NC(=O)[C@H](CO)NC(=O)[C@@H](NC(=O)[C@H](CO)NC(=O)[C@H](CO)NC(=O)[C@H](Cc2c[nH]c3ccccc23)NC(=O)CNC(=O)[C@H](CO)NC(=O)[C@@H](N)Cc2c[nH]c3ccccc23)CSSC[C@@H](C(=O)NCC(=O)O)NC(=O)[C@H](CO)NC1=O` gave an AUC(0-inf) of 349 ng·h/mL (patients, plasma; intravenous, 5 mg/kg, thrice weekly, geometric mean).

A few entries again:
`COCC1CN(C2CCN(c3cc(OC)c(Nc4ncc(Br)c(Nc5ccc6c(c5P(C)(C)=O)OCCO6)n4)cc3C)CC2)C1` gave an AUC(0-inf) of 53600 ng·h/mL (EGFR-mutant NSCLC patients, plasma; oral, 240 mg single dose, geometric mean).
